Published values gathered from unrelated publications.
Numbered parts are unrelated; each lists some results of a single study.

Study 1 — method: RNA Bind-n-Seq; form: RNA; matrix: in vitro; concentration: not given; baseline: input RNA pool; direction: higher = stronger binding; measurement: bound/input enrichment
Target: RING finger protein unkempt homolog, zinc fingers 1-6, GST-SBP tag (UNK, Homo sapiens, UniProt Q9C0B0, residues 30-357)
Chain of UniProt Q9C0B0 (30-357, looked up): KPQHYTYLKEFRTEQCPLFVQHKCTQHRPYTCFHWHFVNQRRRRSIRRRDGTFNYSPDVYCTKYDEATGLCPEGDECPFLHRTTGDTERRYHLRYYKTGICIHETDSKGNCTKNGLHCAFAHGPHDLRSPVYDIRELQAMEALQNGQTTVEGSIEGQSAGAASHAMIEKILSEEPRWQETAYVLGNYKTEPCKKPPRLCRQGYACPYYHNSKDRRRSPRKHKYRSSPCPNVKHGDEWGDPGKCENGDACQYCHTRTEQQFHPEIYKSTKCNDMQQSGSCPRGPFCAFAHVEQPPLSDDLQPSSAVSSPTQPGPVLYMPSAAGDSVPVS
Notes: RNA with constant flanks, human and mouse sites, ends assumed
All sequences stand within: GGGAGUUCUACAGUCCGACGAUC … CAACAGAGGAUUGAGCAUCA
UCUGCAUGAUGUAGAAAUAAAUAAAAUUAUAUCCACAACUGCAUCAAAGACAGAAACACCAAUAGUGUCUAAGUCUCUGAGUUCUUCUUUGGAUGACACCGAAGUUAAGAAGGUUAUGGA: 0.383 ratio
UAAAUGAUAGACAAUUGAGGUAAGUUUUUUGAAAUUAUGUGACAUUUUACAUUAAAUUUUUUUUACAUUUUUUGGGCAGCAAUUUAAAUGUUAUGACUAUGUAAACUACUUCUCUUGUUA: 0.719 ratio
CUCAGAAGAGCCAAAUCGAAAAAUGGGGGGAGAUCUUUGCGAGAAAGGCUAGAAAAAAUCGGUUUGAAUUUACCCGCGGGCAGGCGCAAAGCAGCAAAUGUCACGUUACUCACCUCCCUG: 0.192 ratio
CCAACCUUUUGAUGUUGUGACUUGAAGCCUGAGAAUUGAAUGUUUUAAGUGAGUUUACAGUUUAGUGCUGGGCCACAUUCCUAGUUAUUCUGAGGUAUACGCAGCCUGCAAGCUGCGGUU: 0.237 ratio
AUAACUACUCCUGCCAUGGCGGUCAGUCAUAUCAUGUUGGAAUCAUAUAAAAAGUAUAUUUUAGUGUCUUUGAUAUUACUUGGCAAAGUACAACAGCUACCAAAAUAUACAUCUCAAAUU: 0.109 ratio
CAGAAACUGGAAGAGAUGGUCACCCGCUUAGAUCAAGAAGUAGCUGAAGUUGAUAAAAACAUAGAACUUUUGAAAAAGAAGGAUGAAGAACUAAGUUCUGCUCUGGAGAAAAUGGAAAAU: 1.32 ratio
GUUGAGCCAGCAAGUCAUGGGAGCAAGGGGUAGAUGGACAGUCCGGCACUACAGAACCGUCAUAGGUCUCAAGAGGUCUGGGUGGGAGGUGAAGGGAGAGAACCAAAGCAGAUAGGGAAU: 0.85 ratio

Study 2 — method: RNA Bind-n-Seq; form: RNA; matrix: in vitro; concentration: 200 nM; notes: whole 134-nt RNA, ends assumed; together with: 150 mM KCl; baseline: input library; direction: higher = stronger binding; measurement: log2 enrichment
Target: Ras GTPase-activating protein-binding protein 1, full length (G3BP1, Homo sapiens, UniProt Q13283)
Chain of UniProt Q13283 (whole entry, looked up): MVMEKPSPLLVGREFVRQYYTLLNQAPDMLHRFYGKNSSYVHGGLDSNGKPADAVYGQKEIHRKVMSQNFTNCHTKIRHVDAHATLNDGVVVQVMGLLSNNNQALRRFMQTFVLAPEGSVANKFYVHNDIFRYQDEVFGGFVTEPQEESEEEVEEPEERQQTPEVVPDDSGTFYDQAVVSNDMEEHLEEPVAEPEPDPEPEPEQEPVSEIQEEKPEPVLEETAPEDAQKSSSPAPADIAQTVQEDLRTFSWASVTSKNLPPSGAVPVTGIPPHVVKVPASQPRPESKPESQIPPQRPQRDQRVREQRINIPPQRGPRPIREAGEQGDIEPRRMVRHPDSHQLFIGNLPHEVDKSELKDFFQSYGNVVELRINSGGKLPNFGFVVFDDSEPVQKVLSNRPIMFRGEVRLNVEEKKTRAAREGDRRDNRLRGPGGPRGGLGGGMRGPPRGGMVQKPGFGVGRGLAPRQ
All sequences stand within: GGGAGUUCUACAGUCCGACGAUC … UGGAAUUCUCGGGUGUCAAGG
UCAAGUCCUGUGCUACACAUCGUAUGUACCGAAUCGGUUUUUGGUUUUUGGAGGAAAGUAUUAUGUUACGCCGUUCGGAUCUGCACUUCC: -0.735
AAGUCCUGUGCUACACAUCGUAUGUACCGAAUCGGGUUUUUUUGGGUUUGGGAGGGAAAGUAUUAUGUUACGCCGUUCGGAUCUGCACUU: 0.156
CCUGUGCUACACAUCGUAUGUACCGAAUCGGGAAAAAAGGGGAAAAAAGGGAAAAAAGGGAAAGUAUUAUGUUACGCCGUUCGGAUCUGC: -0.643
CCUCAAGUCCUGUGCUACACAUCGUAUGUACCGAAUCGGAAGGAAGGAAGGGGAAAGUAUUAUGUUACGCCGUUCGGAUCUGCACUUCCA: -0.331
UGCCUACGUAAUUUUUUAUCUUGAAAUAUUCAAAAUUAGGAGCCAGAUGACCAAGAUGCUCCAGAUGAACAUGAGUCGCCUCCACCUGAA: 0.172
CCUGUGCUACACAUCGUAUGUACCGAAUCGGGUUUUUUUGGGUUUUUGGGAAAAAAAGGGAAAGUAUUAUGUUACGCCGUUCGGAUCUGC: -1.02
UCCUGUGCUACACAUCGUAUGUACCGAAUCGGUUUUUUUGGUUUUUUUGGUUUUUUUGGGAAAGUAUUAUGUUACGCCGUUCGGAUCUGC: -0.555
UGUCGGGGCCAAAGUGGUAACGAACGCCCGCAGCCCGGGGGCUCGAUGCUAUGGAUUCGUCACCAUGUCGACAUCUGACGAGGCGACCAA: -2.39
CCUGUGCUACACAUCGUAUGUACCGAAUCGGGAAAAAAAGGGAAAAAAAGGAAAAAAAGGAAAGUAUUAUGUUACGCCGUUCGGAUCUGC: -0.698

Study 3 — method: protein-binding microarray; form: double-stranded DNA, one strand shown; matrix: in vitro; concentration: 940 nM top; notes: 60-bp whole probe; together with: salmon DNA 0.4 mg/ml; baseline: random background probes; direction: higher = stronger binding; measurement: fitted relative affinity; all sequences stand within: GCCTAGCAC … GTCTTGATTCGCTTGACGCTGCTG
Target: Interferon regulatory factor 5, full length, phosphomimetic (IRF5, Homo sapiens, UniProt Q13568-2, residues 1-514, S451D/S453D/S456D/S462D)
TGCTCTTTCTACATAGATGTGTGCTAG: 1.02 z-score
TTCGGTTTCGACTATCGGTTAGTGCTA: 9.23 z-score
TTAGAACTGAGACTGTATTAGTGCTAG: -0.134 z-score
GACGGTATACTTTTCCTGACGTGCTAG: 0.148 z-score
TTAGATTTCAGTTCCGATAAGTGCTAG: 1.64 z-score
TTAGGACTGCTTATCCGTTAGTGCTAG: -0.268 z-score
GTTGAGTTCTGTTGCAAAGGGTGCTAG: -0.0249 z-score
GACGATTTCATTTCCGAGACGTGCTAG: 0.86 z-score
TTAGATTTCAGTCTCGATCAGTGCTAG: 3.64 z-score

Mixed results
PhoQ, residues 284 288 289 292 302 303 QWGLFV  fold induction (PhoP, residues 12 14 15 18 19 AQCLL (Escherichia coli, UniProt P23836); Sort-seq, refers to: YFP reporter; E. coli; PhoQ-PhoP variant library, together with: 10 µM Mg2+; baseline: high Mg2+ state, higher = stronger signaling): 2.53

A few entries again (study 3):
GTTGAGTTCTGTTGCAAAGGGTGCTAG: -0.0249 z-score
TGCTCTTTCTACATAGATGTGTGCTAG: 1.02 z-score
GACGGTATACTTTTCCTGACGTGCTAG: 0.148 z-score
TTAGAACTGAGACTGTATTAGTGCTAG: -0.134 z-score
